Assay results collected from several papers.
Each numbered part is a random draw from the data of one study; scales do not carry over between parts. Values joined by “and” are separate records of one study, mostly repeats; a detail may differ.
UniProt P15056, sequence (whole entry, unmodified, looked up): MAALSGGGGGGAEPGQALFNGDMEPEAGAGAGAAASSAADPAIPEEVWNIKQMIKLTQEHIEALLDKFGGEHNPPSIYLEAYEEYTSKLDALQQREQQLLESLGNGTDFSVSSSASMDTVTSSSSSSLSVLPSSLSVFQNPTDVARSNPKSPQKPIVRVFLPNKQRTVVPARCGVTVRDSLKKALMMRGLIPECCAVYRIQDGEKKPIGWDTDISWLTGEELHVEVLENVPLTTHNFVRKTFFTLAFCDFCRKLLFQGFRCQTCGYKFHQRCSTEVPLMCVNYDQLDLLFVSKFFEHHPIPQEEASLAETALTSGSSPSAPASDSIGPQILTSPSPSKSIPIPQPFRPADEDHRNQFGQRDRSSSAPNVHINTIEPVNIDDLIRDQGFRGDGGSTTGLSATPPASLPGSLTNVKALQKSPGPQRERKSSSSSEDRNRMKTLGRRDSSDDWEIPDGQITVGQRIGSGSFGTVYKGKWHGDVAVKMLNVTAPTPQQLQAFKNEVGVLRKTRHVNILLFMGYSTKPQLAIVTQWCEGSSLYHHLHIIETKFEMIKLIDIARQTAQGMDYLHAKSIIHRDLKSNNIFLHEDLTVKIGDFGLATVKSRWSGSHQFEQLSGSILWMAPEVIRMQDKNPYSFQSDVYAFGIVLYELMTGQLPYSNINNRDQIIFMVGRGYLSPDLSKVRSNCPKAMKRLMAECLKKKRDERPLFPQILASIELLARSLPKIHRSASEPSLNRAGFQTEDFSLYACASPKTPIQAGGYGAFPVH
UniProt O43683, sequence (whole entry, looked up): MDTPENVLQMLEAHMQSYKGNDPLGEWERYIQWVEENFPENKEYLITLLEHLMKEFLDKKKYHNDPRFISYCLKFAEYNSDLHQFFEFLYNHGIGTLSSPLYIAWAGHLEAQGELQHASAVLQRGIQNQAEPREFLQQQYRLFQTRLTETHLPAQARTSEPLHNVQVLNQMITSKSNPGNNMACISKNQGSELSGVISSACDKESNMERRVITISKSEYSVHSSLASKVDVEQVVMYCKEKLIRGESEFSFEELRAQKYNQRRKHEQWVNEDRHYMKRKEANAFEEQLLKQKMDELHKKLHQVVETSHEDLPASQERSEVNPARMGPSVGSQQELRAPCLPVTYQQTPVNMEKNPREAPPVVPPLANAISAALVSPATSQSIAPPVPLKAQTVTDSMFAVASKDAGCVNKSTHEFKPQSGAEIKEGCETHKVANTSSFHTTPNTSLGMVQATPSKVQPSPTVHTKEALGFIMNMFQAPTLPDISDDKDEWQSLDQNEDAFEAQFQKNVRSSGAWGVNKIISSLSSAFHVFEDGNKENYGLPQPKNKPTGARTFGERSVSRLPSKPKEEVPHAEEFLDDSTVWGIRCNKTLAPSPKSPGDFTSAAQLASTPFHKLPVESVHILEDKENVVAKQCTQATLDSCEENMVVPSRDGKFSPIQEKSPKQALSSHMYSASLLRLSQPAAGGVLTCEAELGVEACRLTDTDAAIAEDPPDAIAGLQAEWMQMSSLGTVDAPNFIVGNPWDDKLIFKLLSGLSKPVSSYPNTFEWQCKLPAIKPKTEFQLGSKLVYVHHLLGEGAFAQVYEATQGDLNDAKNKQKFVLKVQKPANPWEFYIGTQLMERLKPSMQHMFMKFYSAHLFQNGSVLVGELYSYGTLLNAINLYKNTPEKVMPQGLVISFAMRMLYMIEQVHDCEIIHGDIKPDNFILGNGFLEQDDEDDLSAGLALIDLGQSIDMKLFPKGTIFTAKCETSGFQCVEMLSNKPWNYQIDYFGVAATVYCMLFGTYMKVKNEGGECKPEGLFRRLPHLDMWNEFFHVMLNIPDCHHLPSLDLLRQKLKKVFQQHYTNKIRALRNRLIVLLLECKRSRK
UniProt Q12866, sequence (whole entry, looked up): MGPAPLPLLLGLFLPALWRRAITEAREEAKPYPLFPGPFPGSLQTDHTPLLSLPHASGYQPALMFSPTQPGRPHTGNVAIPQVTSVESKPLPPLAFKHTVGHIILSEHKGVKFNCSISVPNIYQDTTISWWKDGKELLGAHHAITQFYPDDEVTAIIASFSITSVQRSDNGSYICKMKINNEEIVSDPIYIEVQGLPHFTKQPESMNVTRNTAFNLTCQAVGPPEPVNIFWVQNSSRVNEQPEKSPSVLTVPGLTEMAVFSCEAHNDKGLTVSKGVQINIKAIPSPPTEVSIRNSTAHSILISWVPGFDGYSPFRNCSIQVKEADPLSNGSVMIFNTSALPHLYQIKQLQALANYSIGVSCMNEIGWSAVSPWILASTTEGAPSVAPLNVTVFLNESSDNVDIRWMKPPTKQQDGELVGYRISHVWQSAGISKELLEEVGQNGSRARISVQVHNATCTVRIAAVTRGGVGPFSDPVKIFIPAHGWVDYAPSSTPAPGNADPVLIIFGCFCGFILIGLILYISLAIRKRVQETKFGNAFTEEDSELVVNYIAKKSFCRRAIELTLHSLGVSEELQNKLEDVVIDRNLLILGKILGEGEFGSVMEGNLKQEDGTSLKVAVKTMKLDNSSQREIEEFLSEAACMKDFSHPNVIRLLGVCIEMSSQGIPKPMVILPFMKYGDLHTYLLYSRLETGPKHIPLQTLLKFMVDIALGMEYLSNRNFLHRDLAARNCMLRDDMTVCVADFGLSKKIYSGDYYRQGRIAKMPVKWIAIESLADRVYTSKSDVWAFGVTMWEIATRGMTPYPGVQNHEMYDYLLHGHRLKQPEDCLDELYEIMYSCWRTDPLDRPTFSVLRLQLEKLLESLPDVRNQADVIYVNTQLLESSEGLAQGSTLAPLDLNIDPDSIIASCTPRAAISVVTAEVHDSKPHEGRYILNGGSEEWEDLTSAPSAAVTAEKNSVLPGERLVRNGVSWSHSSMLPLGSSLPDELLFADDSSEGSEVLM
UniProt Q9P286, sequence (whole entry, looked up): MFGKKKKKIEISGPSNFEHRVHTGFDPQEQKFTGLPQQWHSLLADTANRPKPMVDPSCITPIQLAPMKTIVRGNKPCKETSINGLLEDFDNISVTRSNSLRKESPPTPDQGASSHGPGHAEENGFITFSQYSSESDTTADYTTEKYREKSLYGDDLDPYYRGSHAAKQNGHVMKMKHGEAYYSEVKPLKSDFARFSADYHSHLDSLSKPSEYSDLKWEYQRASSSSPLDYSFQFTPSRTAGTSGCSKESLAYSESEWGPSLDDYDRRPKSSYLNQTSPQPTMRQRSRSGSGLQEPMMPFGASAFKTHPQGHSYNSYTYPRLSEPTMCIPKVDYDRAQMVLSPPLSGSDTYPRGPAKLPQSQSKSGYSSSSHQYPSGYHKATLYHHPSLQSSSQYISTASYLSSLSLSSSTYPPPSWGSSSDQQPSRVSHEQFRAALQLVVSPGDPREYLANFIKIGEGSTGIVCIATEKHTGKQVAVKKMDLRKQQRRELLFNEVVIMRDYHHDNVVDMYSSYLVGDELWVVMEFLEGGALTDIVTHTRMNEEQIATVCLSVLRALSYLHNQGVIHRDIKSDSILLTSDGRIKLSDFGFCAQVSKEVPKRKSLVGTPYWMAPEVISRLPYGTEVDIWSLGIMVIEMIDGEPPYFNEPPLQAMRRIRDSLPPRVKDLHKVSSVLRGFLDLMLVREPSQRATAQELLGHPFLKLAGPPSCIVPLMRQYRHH
UniProt P23458, sequence (whole entry, looked up): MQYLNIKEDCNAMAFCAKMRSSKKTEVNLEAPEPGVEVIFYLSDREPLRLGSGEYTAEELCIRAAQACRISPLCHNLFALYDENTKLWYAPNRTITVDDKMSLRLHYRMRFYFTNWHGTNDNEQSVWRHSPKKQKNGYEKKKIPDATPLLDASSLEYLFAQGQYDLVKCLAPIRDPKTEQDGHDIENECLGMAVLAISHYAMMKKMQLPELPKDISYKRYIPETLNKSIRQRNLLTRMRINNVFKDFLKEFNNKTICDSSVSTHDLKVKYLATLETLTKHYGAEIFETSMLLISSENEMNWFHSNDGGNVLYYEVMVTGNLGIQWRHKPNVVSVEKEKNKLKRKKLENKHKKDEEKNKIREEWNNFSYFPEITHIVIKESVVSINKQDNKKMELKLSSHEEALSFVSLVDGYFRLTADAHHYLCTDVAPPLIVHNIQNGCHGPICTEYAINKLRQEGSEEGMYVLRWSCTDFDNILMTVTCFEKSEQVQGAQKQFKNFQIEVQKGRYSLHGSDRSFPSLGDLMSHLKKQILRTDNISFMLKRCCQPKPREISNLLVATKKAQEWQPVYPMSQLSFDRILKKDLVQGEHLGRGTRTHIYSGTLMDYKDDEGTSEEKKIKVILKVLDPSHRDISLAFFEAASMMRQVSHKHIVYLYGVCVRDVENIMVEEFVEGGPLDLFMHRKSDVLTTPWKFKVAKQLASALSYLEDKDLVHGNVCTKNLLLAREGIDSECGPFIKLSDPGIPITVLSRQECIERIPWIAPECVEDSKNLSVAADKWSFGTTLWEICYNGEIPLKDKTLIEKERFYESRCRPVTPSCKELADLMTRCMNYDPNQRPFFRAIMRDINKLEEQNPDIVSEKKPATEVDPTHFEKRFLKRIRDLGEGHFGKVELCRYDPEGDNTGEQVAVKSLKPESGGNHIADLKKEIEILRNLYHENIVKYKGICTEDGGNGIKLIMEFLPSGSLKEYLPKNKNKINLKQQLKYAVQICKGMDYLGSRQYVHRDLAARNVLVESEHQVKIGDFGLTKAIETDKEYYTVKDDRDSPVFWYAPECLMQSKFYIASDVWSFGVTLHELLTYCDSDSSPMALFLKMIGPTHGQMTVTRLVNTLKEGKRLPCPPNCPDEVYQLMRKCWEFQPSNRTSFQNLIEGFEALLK
UniProt Q6P2M8, sequence (whole entry, looked up): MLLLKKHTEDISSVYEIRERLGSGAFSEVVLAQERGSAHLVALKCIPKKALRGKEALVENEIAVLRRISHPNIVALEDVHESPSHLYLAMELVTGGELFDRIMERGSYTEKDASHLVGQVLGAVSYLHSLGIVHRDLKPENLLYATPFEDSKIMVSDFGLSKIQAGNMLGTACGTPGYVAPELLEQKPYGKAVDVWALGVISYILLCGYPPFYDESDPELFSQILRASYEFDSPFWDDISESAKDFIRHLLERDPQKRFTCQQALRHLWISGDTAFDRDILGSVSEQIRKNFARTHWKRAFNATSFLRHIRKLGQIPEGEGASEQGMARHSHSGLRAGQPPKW

Study 1 — SMILES: CSc1cccnc1N1CCN(Cc2nc3ccccc3[nH]2)CC1; tested at: 1 µM
PRKACB (Homo sapiens, UniProt P22694); cell-free assay, competition with immobilised ligand — remaining binding: 100%.
The remaining binding was 74% (PIK3CA (Homo sapiens, UniProt P42336, E545K); cell-free assay, competition with immobilised ligand).
It gave 84% for remaining binding (CDK4 (Homo sapiens, UniProt P11802); cell-free assay, competition with immobilised ligand).
The remaining binding was 74% (ABL1 (Homo sapiens, UniProt P00519, F317I); KINOMEscan; F317I mutant, phosphorylated; relative to: control).
It gave 89% for remaining binding (BRAF (Homo sapiens, UniProt P15056); cell-free assay, competition with immobilised ligand).
For PAK5 (Homo sapiens, UniProt Q9P286); cell-free assay, competition with immobilised ligand: remaining binding read 97%.
It gave 100% for remaining binding (CSNK1G1 (Homo sapiens, UniProt Q9HCP0); cell-free assay, competition with immobilised ligand).
For Tyrosine-protein kinase JAK1, JH2 (JAK1, Homo sapiens, UniProt P23458); cell-free assay, competition with immobilised ligand: remaining binding read 80%.
The remaining binding was 100% (CSF1R (Homo sapiens, UniProt P07333); cell-free assay, competition with immobilised ligand).
The remaining binding was 100% (MAK (Homo sapiens, UniProt P20794); binding, competition with immobilised ligand).
For BUB1 (Homo sapiens, UniProt O43683); cell-free assay, competition with immobilised ligand: remaining binding read 90%.
EPHB6 (Homo sapiens, UniProt O15197); cell-free assay, competition with immobilised ligand — remaining binding: 89%.
STK32C (Homo sapiens, UniProt Q86UX6); binding, competition with immobilised ligand — remaining binding: 71%.
For PNCK (Homo sapiens, UniProt Q6P2M8); cell-free assay, competition with immobilised ligand: remaining binding read 100%.
The remaining binding was 74% (MAP3K7 (Homo sapiens, UniProt O43318); cell-free assay, competition with immobilised ligand).
For PTK6 (Homo sapiens, UniProt Q13882); cell-free assay, competition with immobilised ligand: remaining binding read 88%.
For BRAF (Homo sapiens, UniProt P15056, V600E); cell-free assay, competition with immobilised ligand: remaining binding read 85%.
MERTK (Homo sapiens, UniProt Q12866); cell-free assay, competition with immobilised ligand — remaining binding: 80%.

Study 2 — species: human; medium: microsomes or S9; tested at: 2 µM; time: 0.5 h
With `Cc1ccccc1-c1nc2ccccc2cc1Cn1nc(NCCCO)c2c(N)ncnc21` the remaining compound was 2.23%.
With `CCCS(=O)(=O)c1nc2ccc(NS(=O)(=O)Cc3ccccc3)cc2s1` the remaining compound was 69.7%.
For `CCOC(=O)Cn1c(=N)sc2cc3c(cc21)OCCO3`, the remaining compound was 13.1%.

Study 3 — method: RNA Bind-n-Seq; molecule type: RNA; medium: in vitro; tested at: 20 nM; setting: 6-mer, flanks averaged, single round; together with: 150 mM LiCl; relative to: input library; direction: higher = stronger binding
Target: TAR DNA-binding protein 43, full length, His tag (TARDBP, Homo sapiens, UniProt Q13148, residues 1-414)
Under “6-mer enrichment (R)”, `AUCCGA` is recorded as 0.802.
`CCAAAU`: “6-mer enrichment (R)” 0.891.
For `AGCGUC`, “6-mer enrichment (R)” read 0.879.
Under “6-mer enrichment (R)”, `UGAAAG` is recorded as 0.959.
Under “6-mer enrichment (R)”, `CACGUA` is recorded as 0.877.
For `UCAUAG`, “6-mer enrichment (R)” read 0.844.
`AAUGCU`: “6-mer enrichment (R)” 0.912.
Under “6-mer enrichment (R)”, `ACGUCC` is recorded as 0.859.

Study 4 — organism: Sarcocystis neurona; observed: parasite growth; tested at: 10 µM; setting: secondary screen
`Cc1c(O)cccc1C(=O)N[C@@H](CSc1ccccc1)[C@H](O)CN1C[C@H]2CCCC[C@H]2C[C@H]1C(=O)NC(C)(C)C` gave an inhibition of 52.9%.
For `Nc1cc(N2CCCCC2)nc(N)[n+]1[O-]`, the inhibition was -31.6%.
`O=C1c2cccc3c2[C@H](CCC3)CN1[C@@H]1CN2CCC1CC2` has an inhibition of -21.9%.

Study 5 — cell line: A-375; tested at: 100 µM; time: 36 h
`NS(=O)(=O)c1cc2c(cc1Cl)N=C(CSCc1ccccc1)NS2(=O)=O` gave a viability of 114%.
For `CCn1cc(C(=O)O)c(=O)c2cc(F)c(N3CCNCC3)nc21`, the viability was 26.4% and 23.8%.
`C/C=C1\[C@H]2C=C(C)C[C@]1(N)c1ccc(=O)[nH]c1C2` gave a viability of 92.5%.

Single results of other studies
With `CC(C)(C)c1cnc(CSc2cnc(NC(=O)C3CCN(CCCCCSc4cccc5c4CN(C4CCC(=O)NC4=O)C5=O)CC3)s2)o1` (stereo not drawn) the tumour weight was 0.219 g and 0.325 g and 0.338 g and 0.471 g and 0.379 g (NSG mouse, HuT78 xenograft; dose not given, end of study).
